# Measured values pooled from the literature.
# Each numbered part is a random draw from the data of one study; scales do not carry over between parts. Substitutions count along the parent as printed.
# UniProt Q9LQE8, sequence (whole entry, looked up): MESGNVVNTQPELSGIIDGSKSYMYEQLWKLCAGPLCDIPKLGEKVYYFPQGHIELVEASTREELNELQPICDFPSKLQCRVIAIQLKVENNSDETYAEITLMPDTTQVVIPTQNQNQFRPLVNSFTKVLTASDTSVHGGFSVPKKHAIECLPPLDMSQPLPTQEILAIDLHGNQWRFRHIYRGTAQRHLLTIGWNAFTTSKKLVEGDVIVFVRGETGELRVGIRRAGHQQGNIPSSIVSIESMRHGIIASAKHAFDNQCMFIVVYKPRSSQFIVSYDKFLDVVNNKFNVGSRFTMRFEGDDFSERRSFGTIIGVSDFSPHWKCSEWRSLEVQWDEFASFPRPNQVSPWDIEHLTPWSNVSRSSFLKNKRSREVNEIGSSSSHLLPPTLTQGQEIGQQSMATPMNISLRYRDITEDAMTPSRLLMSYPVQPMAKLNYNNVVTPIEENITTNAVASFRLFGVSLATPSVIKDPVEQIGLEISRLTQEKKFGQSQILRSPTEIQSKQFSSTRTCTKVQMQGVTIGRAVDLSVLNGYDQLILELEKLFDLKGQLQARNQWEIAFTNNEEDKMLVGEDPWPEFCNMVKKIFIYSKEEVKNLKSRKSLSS
# UniProt Q38832, sequence (whole entry, looked up): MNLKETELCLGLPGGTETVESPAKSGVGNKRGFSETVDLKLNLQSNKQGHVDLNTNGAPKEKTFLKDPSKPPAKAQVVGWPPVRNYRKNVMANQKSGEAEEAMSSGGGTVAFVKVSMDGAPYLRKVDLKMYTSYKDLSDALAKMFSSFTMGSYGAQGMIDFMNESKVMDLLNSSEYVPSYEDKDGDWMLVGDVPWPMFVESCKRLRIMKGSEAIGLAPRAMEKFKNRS
# UniProt Q93YR9, sequence (whole entry, looked up): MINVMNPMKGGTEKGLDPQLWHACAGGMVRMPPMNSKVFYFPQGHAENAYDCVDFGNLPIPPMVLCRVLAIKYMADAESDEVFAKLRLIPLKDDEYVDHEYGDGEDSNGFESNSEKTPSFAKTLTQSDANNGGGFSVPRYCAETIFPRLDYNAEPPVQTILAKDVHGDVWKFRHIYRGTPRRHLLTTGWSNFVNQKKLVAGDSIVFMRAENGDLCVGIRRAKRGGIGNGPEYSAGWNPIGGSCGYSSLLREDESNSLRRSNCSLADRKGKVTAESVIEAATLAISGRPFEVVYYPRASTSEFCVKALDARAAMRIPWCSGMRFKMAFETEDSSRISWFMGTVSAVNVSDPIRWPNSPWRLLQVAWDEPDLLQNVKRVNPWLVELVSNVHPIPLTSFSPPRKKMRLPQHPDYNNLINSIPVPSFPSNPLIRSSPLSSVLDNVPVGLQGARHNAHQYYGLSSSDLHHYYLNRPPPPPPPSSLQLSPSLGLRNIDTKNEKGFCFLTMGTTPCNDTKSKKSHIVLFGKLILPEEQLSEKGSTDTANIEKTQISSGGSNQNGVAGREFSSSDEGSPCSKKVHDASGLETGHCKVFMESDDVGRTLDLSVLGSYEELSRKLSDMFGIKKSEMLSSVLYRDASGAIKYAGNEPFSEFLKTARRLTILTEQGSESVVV
# UniProt Q93WC4, sequence (whole entry, looked up): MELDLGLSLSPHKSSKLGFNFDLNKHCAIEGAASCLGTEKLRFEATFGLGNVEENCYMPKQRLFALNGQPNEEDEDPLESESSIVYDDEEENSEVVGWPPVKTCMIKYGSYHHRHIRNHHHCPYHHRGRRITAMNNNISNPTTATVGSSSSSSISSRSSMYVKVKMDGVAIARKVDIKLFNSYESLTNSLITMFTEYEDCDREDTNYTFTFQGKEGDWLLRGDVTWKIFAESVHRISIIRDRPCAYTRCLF
# UniProt Q9M1R4, sequence (whole entry, looked up): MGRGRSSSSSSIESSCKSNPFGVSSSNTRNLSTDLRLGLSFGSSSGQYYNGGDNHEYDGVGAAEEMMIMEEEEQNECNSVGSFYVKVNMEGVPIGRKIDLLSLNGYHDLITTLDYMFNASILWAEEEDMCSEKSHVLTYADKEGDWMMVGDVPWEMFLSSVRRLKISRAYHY
# UniProt Q8LAL2, sequence (whole entry, looked up): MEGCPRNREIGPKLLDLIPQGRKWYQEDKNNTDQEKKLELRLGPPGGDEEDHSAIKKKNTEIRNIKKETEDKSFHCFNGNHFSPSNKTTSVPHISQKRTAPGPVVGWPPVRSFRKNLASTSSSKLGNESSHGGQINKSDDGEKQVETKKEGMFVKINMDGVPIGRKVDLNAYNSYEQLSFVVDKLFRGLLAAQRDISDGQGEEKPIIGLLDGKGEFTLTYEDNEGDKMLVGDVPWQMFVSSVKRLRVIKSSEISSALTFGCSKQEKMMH
# UniProt Q84WU6, sequence (whole entry, looked up): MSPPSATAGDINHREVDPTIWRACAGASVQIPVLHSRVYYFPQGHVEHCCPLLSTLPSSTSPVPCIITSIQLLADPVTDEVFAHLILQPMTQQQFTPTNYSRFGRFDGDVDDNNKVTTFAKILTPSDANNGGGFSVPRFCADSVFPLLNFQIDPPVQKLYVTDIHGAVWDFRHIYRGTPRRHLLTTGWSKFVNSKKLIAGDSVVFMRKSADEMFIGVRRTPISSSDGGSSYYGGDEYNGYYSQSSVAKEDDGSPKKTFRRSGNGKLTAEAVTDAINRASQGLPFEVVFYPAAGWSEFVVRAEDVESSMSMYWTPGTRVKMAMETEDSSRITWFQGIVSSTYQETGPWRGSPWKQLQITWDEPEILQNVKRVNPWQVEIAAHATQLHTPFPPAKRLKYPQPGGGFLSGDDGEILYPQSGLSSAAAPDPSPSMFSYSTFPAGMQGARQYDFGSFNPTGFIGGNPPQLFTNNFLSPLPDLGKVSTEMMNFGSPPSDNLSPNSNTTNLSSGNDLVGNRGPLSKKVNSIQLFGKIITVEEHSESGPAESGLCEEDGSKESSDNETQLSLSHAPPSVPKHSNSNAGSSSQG
# UniProt Q9FKM7, sequence (whole entry, looked up): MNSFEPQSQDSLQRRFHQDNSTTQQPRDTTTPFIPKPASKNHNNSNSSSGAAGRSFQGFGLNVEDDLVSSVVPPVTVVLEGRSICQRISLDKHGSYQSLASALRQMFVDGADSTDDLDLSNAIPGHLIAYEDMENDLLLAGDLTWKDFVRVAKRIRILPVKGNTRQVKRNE
# UniProt Q9XID4, sequence (whole entry, looked up): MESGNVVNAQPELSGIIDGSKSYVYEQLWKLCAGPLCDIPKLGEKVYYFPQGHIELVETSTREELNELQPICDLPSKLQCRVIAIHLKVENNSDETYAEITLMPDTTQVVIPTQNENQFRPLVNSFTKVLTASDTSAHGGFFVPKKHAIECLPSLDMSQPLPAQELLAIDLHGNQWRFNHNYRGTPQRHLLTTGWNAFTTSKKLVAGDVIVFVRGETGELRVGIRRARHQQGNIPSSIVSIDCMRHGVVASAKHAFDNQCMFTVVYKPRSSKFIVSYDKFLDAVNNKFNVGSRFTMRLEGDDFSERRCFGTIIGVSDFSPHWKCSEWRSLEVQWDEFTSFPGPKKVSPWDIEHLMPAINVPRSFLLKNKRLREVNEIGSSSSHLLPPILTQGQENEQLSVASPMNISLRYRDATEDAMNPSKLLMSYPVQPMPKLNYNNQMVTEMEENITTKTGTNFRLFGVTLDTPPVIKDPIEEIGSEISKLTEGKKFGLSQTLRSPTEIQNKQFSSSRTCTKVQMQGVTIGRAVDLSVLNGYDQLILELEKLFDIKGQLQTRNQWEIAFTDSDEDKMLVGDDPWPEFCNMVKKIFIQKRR
# UniProt O24408, sequence (whole entry, looked up): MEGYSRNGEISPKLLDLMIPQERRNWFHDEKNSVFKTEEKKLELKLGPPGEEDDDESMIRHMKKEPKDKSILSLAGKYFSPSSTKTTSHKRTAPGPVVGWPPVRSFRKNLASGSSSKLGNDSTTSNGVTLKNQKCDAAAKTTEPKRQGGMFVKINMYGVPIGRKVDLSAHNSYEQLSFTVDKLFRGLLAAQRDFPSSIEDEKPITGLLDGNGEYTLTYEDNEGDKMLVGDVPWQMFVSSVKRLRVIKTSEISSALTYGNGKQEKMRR
# UniProt Q9C7I9, sequence (whole entry, looked up): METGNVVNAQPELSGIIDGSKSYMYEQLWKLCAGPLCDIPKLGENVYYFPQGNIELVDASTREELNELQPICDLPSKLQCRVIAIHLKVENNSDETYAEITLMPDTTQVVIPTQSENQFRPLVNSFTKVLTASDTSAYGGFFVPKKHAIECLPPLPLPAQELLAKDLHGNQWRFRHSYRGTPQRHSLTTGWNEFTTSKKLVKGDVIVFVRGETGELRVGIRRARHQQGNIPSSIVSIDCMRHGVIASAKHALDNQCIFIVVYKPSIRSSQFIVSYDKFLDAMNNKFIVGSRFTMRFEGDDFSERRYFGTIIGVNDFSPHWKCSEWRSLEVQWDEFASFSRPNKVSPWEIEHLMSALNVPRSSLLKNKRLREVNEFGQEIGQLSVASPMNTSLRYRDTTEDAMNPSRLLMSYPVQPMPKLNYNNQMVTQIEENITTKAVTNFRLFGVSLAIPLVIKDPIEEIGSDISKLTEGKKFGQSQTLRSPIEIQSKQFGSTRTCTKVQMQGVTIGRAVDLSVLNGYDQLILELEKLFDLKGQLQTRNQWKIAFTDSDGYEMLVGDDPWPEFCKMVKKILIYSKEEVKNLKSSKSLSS
# UniProt Q9XFM0, sequence (whole entry, looked up): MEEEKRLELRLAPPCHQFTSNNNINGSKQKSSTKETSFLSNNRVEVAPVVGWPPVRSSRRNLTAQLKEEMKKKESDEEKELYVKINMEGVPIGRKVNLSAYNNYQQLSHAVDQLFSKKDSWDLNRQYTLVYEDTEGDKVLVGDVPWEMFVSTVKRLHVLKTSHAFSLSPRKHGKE

# Sample 1 — target: CCND1, cyclin fold, Cln2 fusion (human); method: yeast growth competition, sequencing; sample: yeast; notes: strong parent motif; baseline: not given; reading: higher = stronger binding
# Parent: INSM1 docking peptide (human); PKAIRKLHFEDEV
Substitution,normalised enrichment score
PKAIRKLHNEDEV [F9N],0.0208
PKAIRKFHFEDEV [L7F],-0.015
PEAIRKLHFEDEV [K2E],1.73
PKWIRKLHFEDEV [A3W],-0.231
PKAIRKLHFADEV [E10A],3.12
PKAIRKLKFEDEV [H8K],4.72
PKAIRKLHCEDEV [F9C],0.142
PKAIRKRHFEDEV [L7R],0.00628
PKAPRKLHFEDEV [I4P],0.51
PKAIRKLHFVDEV [E10V],2.34
PTAIRKLHFEDEV [K2T],4.99
PHAIRKLHFEDEV [K2H],3.7
PKAIRKLHSEDEV [F9S],0.172
PKAIRKLHQEDEV [F9Q],0.035
PKAARKLHFEDEV [I4A],5.7
PKAERKLHFEDEV [I4E],0.599
PKAIRKLHFEDLV [E12L],3.78
PKAIRKLHFEDWV [E12W],3.68
PKAIRKLHFEIEV [D11I],3.03
PKDIRKLHFEDEV [A3D],-0.161
PKAIRKLMFEDEV [H8M],5.34

# Sample 2 — method: RNA Bind-n-Seq; molecule type: RNA; sample: in vitro; tested at: not given; notes: RNA with constant flanks, ends assumed; baseline: input RNA pool; reading: higher = stronger binding
# Target: RING finger protein unkempt homolog, zinc fingers 1-6, GST-SBP tag (UNK, Homo sapiens, UniProt Q9C0B0, residues 30-357)
# All sequences stand within: GGGAGUUCUACAGUCCGACGAUC … CAACAGAGGAUUGAGCAUCA
# Construct (chain): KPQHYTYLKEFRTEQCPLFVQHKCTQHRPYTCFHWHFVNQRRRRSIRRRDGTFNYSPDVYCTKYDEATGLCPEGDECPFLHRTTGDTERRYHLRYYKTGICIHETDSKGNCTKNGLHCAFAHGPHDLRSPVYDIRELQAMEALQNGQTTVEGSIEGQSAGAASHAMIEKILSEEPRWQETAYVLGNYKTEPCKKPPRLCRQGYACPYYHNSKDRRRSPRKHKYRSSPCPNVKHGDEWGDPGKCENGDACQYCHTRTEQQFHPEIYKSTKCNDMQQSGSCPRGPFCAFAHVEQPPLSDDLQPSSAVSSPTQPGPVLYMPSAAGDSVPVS
Strand,bound/input enrichment [ratio]
AGUGAAAAUCUACCAGGCUCCUCUUGUGAGGGGCAGUUCCAGUGUGUCCAUGUAGGGUUCCCGCUACAUCGUUCUAGAAGAUAUGAGUUAAUCUCUAAUAAAAGGAAAAUUAAGACUGGG,0.674
AAGAGUGCAGAUGACUUUAUAGAUAAGCACAUUGCUGAGCUAAUAUUUUACAUGGAAGAGCUCCGAGCACAUGUCAGGAAGUAUGGGCCUGUCAUGCAGAGGUACUACGUGCAAUACCUC,0.233
ACUAAGACUGAAUAUGAACCUGAUCGCAAAAAAGGAAAAGCACGUCCUCCCAAGACCGCCGAGUUCACCGUCAGCAUCACCGAGGGUGUCACCGAGAGGUUUAAGGUCUCCGUGCUGGUC,0.0616
UCAGAACUCAUCUCCACUCGUUUCACAGGCGCCACUGGCAGAGCAUUUCUUUUUAACAAGGCCGUUAACCUGCAGUACAGUGAAGUUCAAGAUCGGGUCAUGCUCACUGGCCGCCACAUG,0.121
UGGUAUGGCCUUGGGCAGACUUACGAAAUCCUUAAAAUGCCAUUUUAUUGCCUUUAUUAUUACCGACGGGCCCACCAGCUUCGUCCCAAUGAUUCUCGCAUGCUGGUUGCCUUAGGAGAA,0.197
CUUUCAGUAAGAACGACCCCCUAAAAGAAAACAGGAGGAGAUGCAGCGCUUUAGGCCGCCUCCGCCAGCAGCUUGUGUCCUACUCUGGAAGUUGUAACCUACAGUUUUUCUCACCUGUAA,0.749
GAACAUAAAGCUGAGAAAGUCCCAGCAGUAGCCAACUACAUUAUGAAAAUACACAAUUUUACCCGCAAAUGCCUCUACUGUAAUCGCUAUUUACCCACAGAUACUCUGCUCAACCAUAUG,1.93
GACAGUUGGUAACUAGGUUCUCUGACCUUUGUUCUACAGGCAGAUCCAGCAAACCCUUUGCCGCACUGUAAAUACUUUGGCUUCGAUAAUGUUCUUAUUACUCUAACCAAUCAUAACUGG,0.072
CCCAACUCCUCUUCAGGACUCACUCCUCUCAGCACCACCGCGCCGAGCAUGUUCUCUGCUGACUUUCCCGACCCACAGGACCUACCGCUGCCAUGGGACUAACGUCACAGAUUUCUUUUC,0.273
AUGAGGGCUCCUAAACACUUUCUUCCUGAGAUGUUAAGCAAAGUAAUCAUCCUGUCACCCGACCGAAGCGAUGAAGAUAAAGAAAAAGCAAGUUCUUUGAUCAGUUUACUCAAACAGGAA,0.11
CAUUCUCUUGCACUGUACAGAACAGAUGACUACUUAGAUCAGCCGUGUUGUGAAACCAUUAACCGAAUUAAACUUUACAGCGAGUCUUUGGCAAGAUACGGUAAAAGCCCGUACCUGUAU,0.225

# Sample 3 — method: Sort-seq; item: YFP reporter; sample: E. coli; notes: PhoQ-PhoP variant library; together with: 10 µM Mg2+; baseline: high Mg2+ state; reading: higher = stronger signaling
# Molecule: PhoQ, residues 284 288 289 292 302 303 SLKLQV
target,fold induction
"PhoP, residues 12 14 15 18 19 LHHYF (Escherichia coli, UniProt P23836)",11.2
"PhoP, residues 12 14 15 18 19 TPWTL (Escherichia coli, UniProt P23836)",1.25
"PhoP, residues 12 14 15 18 19 NFFVT (Escherichia coli, UniProt P23836)",19.3

# Sample 4 — method: two-hybrid; notes: weak activation fusion; reading: higher = firmer interaction
# Molecule: IAA11 (Arabidopsis thaliana, UniProt Q38829)
# T1: itself; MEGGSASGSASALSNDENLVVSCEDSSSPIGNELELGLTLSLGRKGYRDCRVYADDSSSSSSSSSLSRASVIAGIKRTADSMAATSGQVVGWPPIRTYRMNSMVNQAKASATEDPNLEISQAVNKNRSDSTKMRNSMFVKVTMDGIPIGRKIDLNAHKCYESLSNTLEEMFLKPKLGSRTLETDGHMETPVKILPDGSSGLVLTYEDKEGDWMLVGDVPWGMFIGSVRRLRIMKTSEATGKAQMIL
partner,scale,positive tests
"ARF12 500-593 (Arabidopsis thaliana, UniProt Q9XID4)",baseline: out of 4 tests,0
"IAA28 (Arabidopsis thaliana, UniProt Q9XFM0)",baseline: out of 4 tests,2
"IAA20 (Arabidopsis thaliana, UniProt O24410)",baseline: out of 4 tests,0
"IAA13 (Arabidopsis thaliana, UniProt Q38831)",baseline: out of 2 tests,0
"ETT (Arabidopsis thaliana, UniProt O23661)",baseline: out of 4 tests,0
"T1, itself",baseline: out of 4 tests,0
"IAA29 (Arabidopsis thaliana, UniProt Q93WC4)",baseline: out of 4 tests,0
"ARF2 727-859 (Arabidopsis thaliana, UniProt Q94JM3)",baseline: out of 4 tests,0
"IAA26 (Arabidopsis thaliana, UniProt Q8LAL2)",baseline: out of 2 tests,0
"IAA30 (Arabidopsis thaliana, UniProt Q9M1R4)",baseline: out of 3 tests,2
"IAA33 (Arabidopsis thaliana, UniProt Q9FKM7)",baseline: out of 4 tests,0
"ARF17 (Arabidopsis thaliana, UniProt Q84WU6)",baseline: out of 1 tests,0
"ARF9 519-638 (Arabidopsis thaliana, UniProt Q9XED8)",baseline: out of 2 tests,0
"ARF20 484-590 (Arabidopsis thaliana, UniProt Q9C7I9)",baseline: out of 4 tests,0
"IAA18 (Arabidopsis thaliana, UniProt O24408)",baseline: out of 4 tests,1
"ARF7 1030-1164 (Arabidopsis thaliana, UniProt P93022)",baseline: out of 4 tests,2
"ARF10 575-693 (Arabidopsis thaliana, UniProt Q9SKN5)",baseline: out of 4 tests,0
"IAA14 (Arabidopsis thaliana, UniProt Q38832)",baseline: out of 4 tests,0
"ARF16 570-670 (Arabidopsis thaliana, UniProt Q93YR9)",baseline: out of 4 tests,0
"ARF14 497-605 (Arabidopsis thaliana, UniProt Q9LQE8)",baseline: out of 2 tests,0

# Sample 5 — target: CEP164, C-terminal peptide (human); method: DHFR complementation, deep sequencing; sample: yeast; baseline: wild type; reading: higher = weaker binding
# Notes: single substitutions, model-inferred values
# Parent: PDZK1, PDZ domain 2 (human); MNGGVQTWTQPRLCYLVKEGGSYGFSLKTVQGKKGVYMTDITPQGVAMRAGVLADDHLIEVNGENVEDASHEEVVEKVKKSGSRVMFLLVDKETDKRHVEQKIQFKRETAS; partner HNRVKVYRF
Substitution,binding free energy change
V30H,1.52 kJ/mol
G63E,1.43 kJ/mol
V61W,6.73 kJ/mol
K92F,0.107 kJ/mol
R97E,-0.229 kJ/mol
M1D,-0.807 kJ/mol
I103G,-0.367 kJ/mol
V99R,-1.2 kJ/mol
V17D,1.22 kJ/mol
Q104T,-0.466 kJ/mol
E72W,1.71 kJ/mol
R84A,0.0819 kJ/mol
V17W,-0.261 kJ/mol
H71D,-1.59 kJ/mol
A110G,-0.245 kJ/mol
L27M,3.19 kJ/mol
T9I,0.777 kJ/mol
V61E,1.8 kJ/mol
E93Q,-0.419 kJ/mol
R84G,1.7 kJ/mol
G20D,0.835 kJ/mol
V99A,-0.761 kJ/mol
N65M,3.05 kJ/mol
K106Q,-0.436 kJ/mol
M86E,-0.872 kJ/mol

# Sample 6 — method: DHFR PCA, deep sequencing; sample: yeast; together with: (+)-ABA 710 µM; baseline: wild-type fitted maximum; reading: higher = stronger binding
# Target: ABI1, truncated, D143A, DHFR fusion (Arabidopsis thaliana)
# Notes: methotrexate growth selection, single substitutions
# Parent: PYL1, truncated, DHFR fusion (Arabidopsis thaliana); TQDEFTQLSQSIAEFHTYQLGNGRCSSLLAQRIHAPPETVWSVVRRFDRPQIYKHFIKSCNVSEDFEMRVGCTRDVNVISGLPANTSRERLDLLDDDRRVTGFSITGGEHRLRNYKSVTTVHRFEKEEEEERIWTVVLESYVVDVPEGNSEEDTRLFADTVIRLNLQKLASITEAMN
Substitution,relative binding score
V40L,16.7%
G107L,54.9%
N61C,110%
K58P,29.9%
Q31L,73.1%
M68L,105%
S80L,21.3%
C60R,17.1%
E109Q,107%
R49P,-15.5%
D92H,80.7%
A35Q,70.3%
L29R,91.5%
S80R,70.8%
Y141K,-16.5%
E127M,106%
V78W,38.4%
V161N,30.8%
Q19C,99.8%
R123W,84%
F66W,100%
T106S,93.1%
S87Q,28.7%
Y115T,13%
S63I,105%

# For quick reference, copied from above (sample 2):
Strand,bound/input enrichment [ratio]
UCAGAACUCAUCUCCACUCGUUUCACAGGCGCCACUGGCAGAGCAUUUCUUUUUAACAAGGCCGUUAACCUGCAGUACAGUGAAGUUCAAGAUCGGGUCAUGCUCACUGGCCGCCACAUG,0.121
UGGUAUGGCCUUGGGCAGACUUACGAAAUCCUUAAAAUGCCAUUUUAUUGCCUUUAUUAUUACCGACGGGCCCACCAGCUUCGUCCCAAUGAUUCUCGCAUGCUGGUUGCCUUAGGAGAA,0.197
CUUUCAGUAAGAACGACCCCCUAAAAGAAAACAGGAGGAGAUGCAGCGCUUUAGGCCGCCUCCGCCAGCAGCUUGUGUCCUACUCUGGAAGUUGUAACCUACAGUUUUUCUCACCUGUAA,0.749
GAACAUAAAGCUGAGAAAGUCCCAGCAGUAGCCAACUACAUUAUGAAAAUACACAAUUUUACCCGCAAAUGCCUCUACUGUAAUCGCUAUUUACCCACAGAUACUCUGCUCAACCAUAUG,1.93
GACAGUUGGUAACUAGGUUCUCUGACCUUUGUUCUACAGGCAGAUCCAGCAAACCCUUUGCCGCACUGUAAAUACUUUGGCUUCGAUAAUGUUCUUAUUACUCUAACCAAUCAUAACUGG,0.072
CCCAACUCCUCUUCAGGACUCACUCCUCUCAGCACCACCGCGCCGAGCAUGUUCUCUGCUGACUUUCCCGACCCACAGGACCUACCGCUGCCAUGGGACUAACGUCACAGAUUUCUUUUC,0.273
